Assay results gathered from unrelated publications.
Every numbered part comes from another study and shows a few of its results, in no order. Values joined by “and” are separate records of one study, mostly repeats; a detail may differ.
Chain of UniProt P42336 (whole entry, unmodified, looked up): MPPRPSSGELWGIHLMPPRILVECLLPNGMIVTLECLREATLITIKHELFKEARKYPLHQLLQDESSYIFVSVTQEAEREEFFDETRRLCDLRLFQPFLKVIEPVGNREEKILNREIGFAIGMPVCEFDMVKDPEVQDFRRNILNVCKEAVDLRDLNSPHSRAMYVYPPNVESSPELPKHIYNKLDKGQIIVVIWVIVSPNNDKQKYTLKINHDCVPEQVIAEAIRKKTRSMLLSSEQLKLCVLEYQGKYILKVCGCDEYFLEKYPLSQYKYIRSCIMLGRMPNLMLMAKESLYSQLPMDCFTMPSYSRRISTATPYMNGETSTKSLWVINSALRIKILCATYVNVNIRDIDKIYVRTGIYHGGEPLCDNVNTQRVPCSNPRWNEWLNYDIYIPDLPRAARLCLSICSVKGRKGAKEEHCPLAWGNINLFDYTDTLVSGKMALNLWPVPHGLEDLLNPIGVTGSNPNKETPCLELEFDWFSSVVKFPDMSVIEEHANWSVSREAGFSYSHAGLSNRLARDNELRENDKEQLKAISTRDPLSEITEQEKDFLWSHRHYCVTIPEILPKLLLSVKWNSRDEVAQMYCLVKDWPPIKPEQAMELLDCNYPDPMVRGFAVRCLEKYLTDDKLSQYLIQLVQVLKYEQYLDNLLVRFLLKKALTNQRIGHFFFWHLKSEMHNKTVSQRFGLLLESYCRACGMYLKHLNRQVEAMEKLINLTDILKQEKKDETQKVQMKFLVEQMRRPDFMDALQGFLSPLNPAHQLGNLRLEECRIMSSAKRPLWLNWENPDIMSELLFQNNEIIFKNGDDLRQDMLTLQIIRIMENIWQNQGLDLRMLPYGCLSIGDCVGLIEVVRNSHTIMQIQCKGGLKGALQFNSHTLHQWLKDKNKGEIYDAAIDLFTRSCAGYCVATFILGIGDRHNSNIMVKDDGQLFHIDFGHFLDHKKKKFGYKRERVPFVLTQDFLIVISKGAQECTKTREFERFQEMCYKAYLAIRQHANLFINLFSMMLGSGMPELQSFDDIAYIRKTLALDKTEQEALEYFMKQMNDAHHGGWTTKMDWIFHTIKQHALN
Chain of UniProt Q96Q40 (whole entry, looked up): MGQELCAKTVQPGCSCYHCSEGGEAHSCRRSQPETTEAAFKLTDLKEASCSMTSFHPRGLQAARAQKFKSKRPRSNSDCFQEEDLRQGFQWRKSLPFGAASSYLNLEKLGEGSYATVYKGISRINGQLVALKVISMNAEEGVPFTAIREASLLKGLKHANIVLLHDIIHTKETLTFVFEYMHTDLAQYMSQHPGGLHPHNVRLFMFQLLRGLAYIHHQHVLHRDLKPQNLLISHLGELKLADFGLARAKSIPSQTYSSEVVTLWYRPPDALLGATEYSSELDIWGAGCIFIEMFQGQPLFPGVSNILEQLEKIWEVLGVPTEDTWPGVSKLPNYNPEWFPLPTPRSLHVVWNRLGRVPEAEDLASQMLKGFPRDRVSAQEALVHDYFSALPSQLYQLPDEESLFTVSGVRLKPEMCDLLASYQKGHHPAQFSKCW
Chain of UniProt Q8NE63 (whole entry, looked up): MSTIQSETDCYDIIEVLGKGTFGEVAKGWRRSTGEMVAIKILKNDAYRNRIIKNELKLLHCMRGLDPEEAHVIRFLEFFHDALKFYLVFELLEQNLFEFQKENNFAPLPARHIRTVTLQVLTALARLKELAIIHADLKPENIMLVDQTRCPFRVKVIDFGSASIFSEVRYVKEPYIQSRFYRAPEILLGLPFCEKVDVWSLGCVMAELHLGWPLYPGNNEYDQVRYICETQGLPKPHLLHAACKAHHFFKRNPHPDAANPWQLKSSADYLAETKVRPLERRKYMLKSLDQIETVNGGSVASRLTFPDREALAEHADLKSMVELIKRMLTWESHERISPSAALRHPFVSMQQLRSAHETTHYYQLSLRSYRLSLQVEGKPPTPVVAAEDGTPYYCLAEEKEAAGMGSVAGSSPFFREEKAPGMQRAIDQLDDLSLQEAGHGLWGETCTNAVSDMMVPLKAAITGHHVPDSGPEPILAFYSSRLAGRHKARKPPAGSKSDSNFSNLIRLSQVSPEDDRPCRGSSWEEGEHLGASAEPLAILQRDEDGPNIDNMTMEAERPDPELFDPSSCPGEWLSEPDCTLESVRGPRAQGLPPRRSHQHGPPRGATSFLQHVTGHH
Chain of UniProt P78368 (whole entry, looked up): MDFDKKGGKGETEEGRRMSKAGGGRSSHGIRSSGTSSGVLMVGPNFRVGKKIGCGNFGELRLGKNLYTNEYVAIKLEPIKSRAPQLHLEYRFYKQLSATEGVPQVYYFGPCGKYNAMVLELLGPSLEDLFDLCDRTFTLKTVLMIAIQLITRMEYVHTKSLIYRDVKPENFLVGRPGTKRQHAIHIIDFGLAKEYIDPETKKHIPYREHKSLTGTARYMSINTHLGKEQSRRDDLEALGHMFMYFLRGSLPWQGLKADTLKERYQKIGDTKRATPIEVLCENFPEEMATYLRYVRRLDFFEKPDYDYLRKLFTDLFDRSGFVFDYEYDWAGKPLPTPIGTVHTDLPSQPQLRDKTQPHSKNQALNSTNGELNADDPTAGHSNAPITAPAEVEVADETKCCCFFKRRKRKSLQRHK

Study 1
SMILES: COc1cc(-c2nc3ccc(C(=O)NCCCN4CCN(c5cccc(C)c5C)CC4)cc3n2C2CCC2)cc(OC)c1OC
target | observed | technique | tested at | baseline | remaining binding [%]
BLK (Homo sapiens, UniProt P51451) | binding | competition with immobilised ligand | 1 µM | – | 81
CDK15 (Homo sapiens, UniProt Q96Q40) | binding | competition with immobilised ligand | 1 µM | – | 98
LIM domain kinase 2 (LIMK2, Homo sapiens, UniProt P53671) | binding | competition with immobilised ligand | 1 µM | – | 100
CAMKK1 (Homo sapiens, UniProt Q8N5S9) | binding | competition with immobilised ligand | 1 µM | – | 100
CDKL2 (Homo sapiens, UniProt Q92772) | binding | competition with immobilised ligand | 1 µM | – | 74
Tyrosine-protein kinase ABL1, phosphorylated (ABL1, Homo sapiens, UniProt P00519, T315I) | binding | competition with immobilised ligand | 1 µM | – | 71
PIK3CA (Homo sapiens, UniProt P42336, I800L) | binding | competition with immobilised ligand | 1 µM | – | 100
STK17B (Homo sapiens, UniProt O94768) | binding | competition with immobilised ligand | 1 µM | – | 100
MAP3K19 (Homo sapiens, UniProt Q56UN5) | binding | competition with immobilised ligand | 1 µM | – | 99
EPHB2 (Homo sapiens, UniProt P29323) | binding | competition with immobilised ligand | 1 µM | – | 86
CDK2 (Homo sapiens, UniProt P24941) | binding | competition with immobilised ligand | 1 µM | – | 100
PIK3CA (Homo sapiens, UniProt P42336, E542K) | binding | competition with immobilised ligand | 1 µM | – | 82
FGFR1 (Homo sapiens, UniProt P11362) | binding | competition with immobilised ligand | 1 µM | – | 99
HIPK4 (Homo sapiens, UniProt Q8NE63) | binding | competition with immobilised ligand | 1 µM | – | 100
EGFR (Homo sapiens, UniProt P00533, T790M) | binding | competition with immobilised ligand | 1 µM | – | 86
CSNK1G2 (Homo sapiens, UniProt P78368) | binding | competition with immobilised ligand | 1 µM | – | 72
STK24 (Homo sapiens, UniProt Q9Y6E0) | binding | competition with immobilised ligand | 1 µM | – | 100
PDGFRB (Homo sapiens, UniProt P09619) | binding | competition with immobilised ligand | 1 µM | – | 100
DAPK2 (Homo sapiens, UniProt Q9UIK4) | binding | competition with immobilised ligand | 1 µM | – | 99
RIPK4 (Homo sapiens, UniProt P57078) | binding | competition with immobilised ligand | 1 µM | – | 99
FLT3 ITD human | – | KINOMEscan | 1000 nM | DMSO control | 99

Study 2
Compound: O=C(O)C1(O)Oc2cc(Br)ccc2N(Cc2ccccc2)C1=O (stereo not drawn)
organism | assay | test system | setting | inhibition
Arabidopsis thaliana | root length | Col-0, seedlings | 100 µg/mL | 89.7%
Arabidopsis thaliana | root length | Col-0 | 100 µg/mL, 7 days, seed germination, dark | 89.7%
Abutilon theophrasti | fresh weight | – | 150 g ai/ha, pre-emergence treatment | 22.5% and 19.8% and 20.1%
Oryza sativa | fresh weight | – | soil surface spray, 150 g ai/ha, 21 days, pre-emergence crop safety | 5% and 5.1%
Arabidopsis thaliana | hypocotyl length | Col-0 | 3.125 µg/mL, 7 days, seed germination, dark | 0.8%
Eclipta prostrata | fresh weight | – | 150 g ai/ha, post-emergence treatment | 66% and 65.1% and 62.7%
Arabidopsis thaliana | root length | Col-0 | 12.5 µg/mL, 7 days, seed germination, dark | 28.1%
Arabidopsis thaliana | root length | Col-0 | 25.0 µg/mL, 7 days, seed germination, dark | 41.7%
Arabidopsis thaliana | root length | Col-0 | 3.13 µg/mL, 7 days, seed germination, dark | 10.6%
Arabidopsis thaliana | hypocotyl length | Col-0, seedlings | 50 µg/mL | 35.3%
Arabidopsis thaliana | root length | Col-0 | 6.25 µg/mL, 7 days, seed germination, dark | 19.8%
Arabidopsis thaliana | hypocotyl length | Col-0, seedlings | 3.125 µg/mL | -0.765%
Triticum aestivum | fresh weight | – | soil surface spray, 150 g ai/ha, 21 days, pre-emergence crop safety | 8.5% and 6.2% and 7.8%

Study 3
SMILES: Cc1c(NC(=O)c2cccn(-c3ccc(F)cc3)c2=O)ccc(Oc2ccnc(NC(=O)C3CC3)c2)c1C
Target: Receptor-interacting serine/threonine-protein kinase 3 (RIPK3, Homo sapiens, UniProt Q9Y572)
Chain of UniProt Q9Y572 (whole entry, looked up): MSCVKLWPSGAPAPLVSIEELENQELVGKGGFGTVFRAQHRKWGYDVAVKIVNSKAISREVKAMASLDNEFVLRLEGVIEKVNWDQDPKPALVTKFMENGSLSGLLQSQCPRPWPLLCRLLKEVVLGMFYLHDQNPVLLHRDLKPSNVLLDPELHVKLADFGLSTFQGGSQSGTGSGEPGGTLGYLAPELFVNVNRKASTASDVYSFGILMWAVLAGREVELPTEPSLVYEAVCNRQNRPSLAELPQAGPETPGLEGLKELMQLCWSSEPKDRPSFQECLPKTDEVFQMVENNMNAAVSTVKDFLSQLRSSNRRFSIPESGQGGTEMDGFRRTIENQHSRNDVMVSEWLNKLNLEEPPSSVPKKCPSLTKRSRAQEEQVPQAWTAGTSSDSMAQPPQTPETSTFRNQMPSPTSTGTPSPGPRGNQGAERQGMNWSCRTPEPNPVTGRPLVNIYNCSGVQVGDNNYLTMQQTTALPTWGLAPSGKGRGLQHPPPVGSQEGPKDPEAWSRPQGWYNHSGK
Observed: kinase activity
Action: inhibitor
Technique: ADP-Glo
Time: 1 h
tested at | inhibition
15.62 nM | 37%
500 nM | 100%
31.25 nM | 43.3%

Study 4
SMILES: Cc1ccc(O)c(C)c1-c1cnc2[nH]c(-c3cnc(N)nc3)cc2c1C#N
Target: Membrane-associated tyrosine- and threonine-specific cdc2-inhibitory kinase (PKMYT1, Homo sapiens, UniProt Q99640)
Chain of UniProt Q99640 (whole entry, looked up): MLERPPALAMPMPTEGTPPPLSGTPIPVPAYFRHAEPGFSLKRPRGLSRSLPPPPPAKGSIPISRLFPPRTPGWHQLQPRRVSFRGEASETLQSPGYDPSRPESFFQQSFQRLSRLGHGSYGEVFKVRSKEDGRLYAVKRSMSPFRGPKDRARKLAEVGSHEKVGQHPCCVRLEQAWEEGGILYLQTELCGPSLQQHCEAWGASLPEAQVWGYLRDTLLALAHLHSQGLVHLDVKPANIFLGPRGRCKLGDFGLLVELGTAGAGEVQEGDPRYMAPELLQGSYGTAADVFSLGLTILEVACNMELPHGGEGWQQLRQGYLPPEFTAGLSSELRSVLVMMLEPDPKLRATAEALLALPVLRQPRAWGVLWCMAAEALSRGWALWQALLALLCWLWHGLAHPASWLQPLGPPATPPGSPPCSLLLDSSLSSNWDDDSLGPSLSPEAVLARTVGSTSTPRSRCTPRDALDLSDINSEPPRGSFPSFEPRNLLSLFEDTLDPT
Action: degrader
Technique: automated immunoblot
Cells: HCC1569
tested at | degradation [%]
333.33 nM | -33.8
0.02 nM | 5.39
1000 nM | -26.7

Study 5
Compound: Cc1ncsc1-c1ccc(C(CO)NC(=O)C2CC(O)CN2C(=O)C(C(C)C)n2cc(-c3ccc(COc4c(-c5c(C)c(F)cc6[nH]ncc56)c(C5CC5)cc5c(N6CC7CC6CN7)nc(OC6CCOCC6)nc45)cc3)nn2)cc1 (stereo not drawn)
cells | host | route | dose | time | tumour volume
– | mouse, PK-59 xenograft | – | 0.3 mg/kg | day 7 | 774 mm3 and 670 mm3 and 636 mm3 and 649 mm3 and 641 mm3
– | mouse, PK-59 xenograft | subcutaneous | 30 mg/kg once daily | day 11 | 54 mm3 and 53.5 mm3 and 81.5 mm3 and 78.4 mm3 and 52.9 mm3
– | mouse, lung LXFA sample A PDX | – | 10 mg/kg twice weekly | day 13 | 75.2 mm3 and 124 mm3 and 169 mm3 and 141 mm3 and 75 mm3 and 77.6 mm3 and 349 mm3 and 239 mm3
KP-4 xenograft | mouse | – | 30 mg/kg once weekly | day 14 | 405 mm3 and 441 mm3 and 367 mm3 and 283 mm3 and 366 mm3
– | mouse, PK-59 xenograft | – | 1 mg/kg | day 17 | 790 mm3 and 868 mm3 and 1030 mm3 and 985 mm3 and 847 mm3
– | mouse, PK-59 xenograft | – | 30 mg/kg | day 10 | 220 mm3 and 150 mm3 and 210 mm3 and 182 mm3 and 140 mm3
GP2d xenograft | mouse | – | 30 mg/kg once weekly | day 7 | 241 mm3 and 199 mm3 and 162 mm3 and 130 mm3 and 185 mm3
– | mouse, PK-59 xenograft | – | 0.3 mg/kg | day 14 | 998 mm3 and 1200 mm3 and 1190 mm3 and 1160 mm3 and 1310 mm3
PK-1 xenograft | mouse | – | 30 mg/kg once weekly | day 10 | 157 mm3 and 179 mm3 and 165 mm3 and 151 mm3 and 190 mm3
– | mouse, lung LXFA sample A PDX | – | 30 mg/kg twice weekly | day 0 | 82.9 mm3 and 115 mm3 and 67.9 mm3 and 45.4 mm3 and 111 mm3 and 178 mm3 and 188 mm3 and 273 mm3

Study 6
Compound: CC[C@@]1(c2ccccc2)C2=C(CC(C)(C)CC2=O)Nc2n[nH]cc21
Tested at: 1 µM
target | observed | technique | baseline | remaining binding
SGK2 (Homo sapiens, UniProt Q9HBY8) | kinase binding | KINOMEscan | DMSO control | 96%
CAMK1 (Homo sapiens, UniProt Q14012) | kinase binding | KINOMEscan | DMSO control | 100%
PIP5K1C (Homo sapiens, UniProt O60331) | binding | competition with immobilised ligand | – | 65%
LATS1 (Homo sapiens, UniProt O95835) | binding | competition with immobilised ligand | – | 93%
EGFR (Homo sapiens, UniProt P00533, del747-750/T751S) | kinase binding | KINOMEscan | DMSO control | 88%
CDK19 (Homo sapiens, UniProt Q9BWU1) | – | KINOMEscan | – | 100%
MAST1 (Homo sapiens, UniProt Q9Y2H9) | binding | competition with immobilised ligand | – | 100%
FLT1 (Homo sapiens, UniProt P17948) | binding | competition with immobilised ligand | – | 99%
Ribosomal protein S6 kinase alpha-1, C-terminal kinase domain (RPS6KA1, Homo sapiens, UniProt Q15418) | kinase binding | KINOMEscan | DMSO control | 85%

Study 7
SMILES: C[C@@H]1CN(c2ccc(-c3cc(C(=O)NCCOCCOCCOCCOCCNC(=O)/C=C/c4[nH]cc(C(=O)N[C@@H](CC(N)=O)c5ccc(F)c(Cl)c5)c4-c4ccc(Cl)cc4F)ccc3F)cc2NC(=O)c2c[nH]c(=O)cc2C(F)(F)F)C[C@H](C)N1C
Observed: thermal unfolding
Technique: differential scanning fluorimetry
Tested at: 5.5 µM
Direction: higher = more unfolded
WDR5: WD repeat-containing protein 5 (WDR5, Homo sapiens, UniProt P61964)
DCAF1: DDB1- and CUL4-associated factor 1 (DCAF1, Homo sapiens, UniProt Q9Y4B6)
Chain of UniProt Q9Y4B6 (whole entry, looked up): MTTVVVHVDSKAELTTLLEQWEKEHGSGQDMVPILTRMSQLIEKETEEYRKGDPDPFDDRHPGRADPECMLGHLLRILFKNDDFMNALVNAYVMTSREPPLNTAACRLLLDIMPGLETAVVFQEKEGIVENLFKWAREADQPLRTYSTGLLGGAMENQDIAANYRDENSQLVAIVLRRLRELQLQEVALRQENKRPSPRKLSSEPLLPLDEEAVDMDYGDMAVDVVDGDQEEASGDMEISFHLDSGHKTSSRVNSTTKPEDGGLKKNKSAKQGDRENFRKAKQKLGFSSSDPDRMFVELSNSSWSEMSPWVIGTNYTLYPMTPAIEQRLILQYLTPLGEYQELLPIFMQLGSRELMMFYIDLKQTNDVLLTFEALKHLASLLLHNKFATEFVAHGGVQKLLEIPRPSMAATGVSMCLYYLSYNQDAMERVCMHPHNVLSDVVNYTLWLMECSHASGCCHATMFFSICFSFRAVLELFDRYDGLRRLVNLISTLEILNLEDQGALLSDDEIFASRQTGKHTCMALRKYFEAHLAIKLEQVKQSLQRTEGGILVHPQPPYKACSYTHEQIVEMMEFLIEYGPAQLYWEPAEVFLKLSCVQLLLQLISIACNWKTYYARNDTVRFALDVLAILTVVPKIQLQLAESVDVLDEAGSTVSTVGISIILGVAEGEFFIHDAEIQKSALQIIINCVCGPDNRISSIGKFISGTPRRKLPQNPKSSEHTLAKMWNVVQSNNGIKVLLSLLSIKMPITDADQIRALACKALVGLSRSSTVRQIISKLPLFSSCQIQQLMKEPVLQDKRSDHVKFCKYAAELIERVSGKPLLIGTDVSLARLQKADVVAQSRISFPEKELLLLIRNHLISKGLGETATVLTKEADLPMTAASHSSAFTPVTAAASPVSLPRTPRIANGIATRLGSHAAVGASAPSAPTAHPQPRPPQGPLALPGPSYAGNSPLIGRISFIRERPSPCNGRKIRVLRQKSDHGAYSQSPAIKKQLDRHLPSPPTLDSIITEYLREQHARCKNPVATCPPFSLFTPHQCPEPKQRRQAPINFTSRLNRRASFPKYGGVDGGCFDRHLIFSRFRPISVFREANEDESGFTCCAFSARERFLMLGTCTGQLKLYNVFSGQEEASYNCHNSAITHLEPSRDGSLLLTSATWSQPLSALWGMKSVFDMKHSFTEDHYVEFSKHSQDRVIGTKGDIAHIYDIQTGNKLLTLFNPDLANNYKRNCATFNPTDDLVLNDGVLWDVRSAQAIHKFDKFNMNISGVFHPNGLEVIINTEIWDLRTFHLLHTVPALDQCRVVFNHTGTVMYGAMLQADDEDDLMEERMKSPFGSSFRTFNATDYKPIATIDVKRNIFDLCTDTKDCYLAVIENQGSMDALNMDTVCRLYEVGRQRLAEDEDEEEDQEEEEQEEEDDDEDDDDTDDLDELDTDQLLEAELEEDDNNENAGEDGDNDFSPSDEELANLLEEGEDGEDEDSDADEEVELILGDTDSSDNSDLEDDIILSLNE
target | temperature | SYPRO Orange fluorescence [a.u.]
WDR5 | 69.81 °C | 15900
WDR5 | 34.4 °C | 13200
DCAF1 | 72.81 °C | 52400
DCAF1 | 60.21 °C | 41700
WDR5 | 29.6 °C | 12700
DCAF1 | 72.01 °C | 53300
WDR5 | 88.21 °C | 53000
DCAF1 | 61.01 °C | 45600
DCAF1 | 78.21 °C | 47000
WDR5 | 90.01 °C | 51100
WDR5 | 47.2 °C | 15700

Study 8
Structure (SMILES): Ic1ccc(Nc2nc(NCCN3CCOCC3)nc(N3CCNCC3)n2)cc1
Cell line: Gaucher fibroblasts L444P/L444P
Technique: 4-MUG hydrolysis, cell lysate
tested at | time | baseline | GCase activity
10 µM | 72 h | vehicle | 6%
1 µM | 72 h | vehicle | 106%
1 µM | – | DMSO | 106% and 102% and 104% and 109%

Study 9
Structure (SMILES): CCN1/C(=C/C=C2\CCCC(/C=C/C3=[N+](CC)c4ccccc4C3(C)C)=C2NCCCCCCCCN2CCC(Nc3nc4ccccc4n3Cc3ccc(F)cc3)CC2)C(C)(C)c2ccccc21
Cell line: U-87 MG
Tested at: concentration not given
Baseline: DMSO
item | log2 fold change
MGAT5B mRNA | -1.93
RAB18 mRNA | 0.997
NGLY1 mRNA | 0.817
NDST1 mRNA | -1.58
CDC7 mRNA | -1.94
HBP1 mRNA | 1.15
TEDC1 mRNA | -0.97
SYTL1 mRNA | 1.59
MVP mRNA | -1.04
PRRT2 mRNA | -1.47
HAPLN3 mRNA | -1.58
CDK13 mRNA | 0.808
CAMK2N2 mRNA | -0.815
MAP3K6 mRNA | -1.57
MYL9 mRNA | -1.13
BLVRA mRNA | -0.915

Other studies, line by line
Compound | cell line | observed | time | quantity | value
CCn1cnc2c(NCc3nc4cc(F)c(F)cc4[nH]3)nc(N3CCn4ncnc4C3)nc21 | MDA-MB-231 | cell growth or viability | 5 days | EC50 | 0.239 µM
